Measurements from different studies.
Parts stem from different laboratories: compare values within a part only.

Series 1
Target: RNA binding protein fox-1 homolog 2, RRM domain, GST-SBP tag (RBFOX2, Homo sapiens, UniProt O43251-10, residues 100-194)
Technique: RNA Bind-n-Seq
Form: RNA
Matrix: in vitro
Tested at: 365 nM
Notes: natural RNA segment, single round, ends assumed
Baseline: no-protein control
Reading: higher = stronger binding
All sequences stand within: GGGAGUUCUACAGUCCGACGAUC … UGGAAUUCUCGGGUGCCAA
Target sequence (chain): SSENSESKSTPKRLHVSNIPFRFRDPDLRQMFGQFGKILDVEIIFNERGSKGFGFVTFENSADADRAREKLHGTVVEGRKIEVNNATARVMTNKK
Strand	RBNS enrichment (R)
UACCAGUCACCAAAGUUUCCUGUUAUAAUUUCUUUUAGCAGACAAGUUAUAAGUCAGAUUUAAUUAGCAUCAGAGUUGAUUUUAUAUUAGUCAGAUUUUGGAUCAUCACA	0.491
AUCCAUCUCAAGAUAGAACCUAAGUAUUUCACGUCUGACCAGCAGUCUCUGUGGUUCUGCACAGAUUUUGGAAGGUCUUCACUACUCUUGGAAACAAACCCAUGAAUGAA	0.304
CACACCCACCAGAUUGUUACUACAGUGGGUUGGGUUUUCAUACAGACGUAAAUUUUGAGAGAAAAGUCAAAGGUGCUUCAGCCUUGUACUGUGUAUAUAUAUUAAAAAAA	0.725
CAAACAACCGAAGCUGUGAAAAAGGUCGAAGAAACUGUGGCAACUUCAGAGAUGGAUGAAAGUUUGGAGUGUGCAGGUGCGCAAUCAUUACCAGCUGAGAAGCUCUCCGA	0.454
UGCAGGUCCAAGACCUGGACUCCUGCUUCAGCCCAGGCCAGUACUCCUUGUCUGAGGUGAAAGCCUUCAGUUUAGCUCCCUGGCCCUUGUGUGGAAGCAAUGUGGAGUGA	0.335
ACCGCCUAUCACGCCGACUGCUUCCCGAGGCCCCGGGUGGGCUAAGGGGCUGGGUCUGCUUCACCAAUCACCCAACCUGAGUCCCCCAGCUUUACCACAGAGCUGCCAAC	0.305
CACCAAACUUAAAUAGCAGGAGGAGACUGGCAGGUGAGUGUGUCCAAGAAAUCCACAUUUGUGCUGCAGAUACUGGAAACCAAACUGCAGCUGCAGCCAUUGGAAGAAAC	0.356
UUGAAAAAAUGUUCUAUAUGCAUUUAAUUCUGAAAUCAGUCUACCAAGGGGCUGCUAGUAUAUGUCAGACAUGAAAACUAUUUUAAAGCUGACUUUGUUGCCUUAUCUUG	0.4
UCAGCAAGCCAUCAAGCCUCACAUCUCUACCAUCAGAGAUAGAGCUUGGCCAUUUAUCUAAGGAAGAUGAGCCAAAAUUAUGACAUCUAAAAUAAUCGUCAGUCUUAAGA	0.28
UGGGUGUUUCCCACCCAAUCCUGCUCCCUGACUCCCUAGAGACUAAGAGGACUCUCCCUGACCAAGGACUAAAAAGCCUUUGGGGAUGCUGGUAUGAUGGACCAGGCAGG	0.357
GUCCUCGGAAUCUCUUUUCUAUUCACAGCCCUUCUAUAGCCUUGCUCUGAUGGUUUUAGCACUUGAUCUGAGAGAAGCUUGCCCAUAAUUUAAUGCUUCUUUUCCUUAAA	1.34
GCAUCUCACGAGAGUCCCUCAGGCUCUGCAACACUAGAUUCGAAUAUGAGCCUAGGGUUUCCCCAACACGUGCGUGCAUAUGAAACCACAUCAUGAUUCCCGACGUGAGU	0.311

Series 2
Target: Ras GTPase-activating protein-binding protein 1, full length (G3BP1, Homo sapiens, UniProt Q13283)
UniProt Q13283, sequence (whole entry, looked up): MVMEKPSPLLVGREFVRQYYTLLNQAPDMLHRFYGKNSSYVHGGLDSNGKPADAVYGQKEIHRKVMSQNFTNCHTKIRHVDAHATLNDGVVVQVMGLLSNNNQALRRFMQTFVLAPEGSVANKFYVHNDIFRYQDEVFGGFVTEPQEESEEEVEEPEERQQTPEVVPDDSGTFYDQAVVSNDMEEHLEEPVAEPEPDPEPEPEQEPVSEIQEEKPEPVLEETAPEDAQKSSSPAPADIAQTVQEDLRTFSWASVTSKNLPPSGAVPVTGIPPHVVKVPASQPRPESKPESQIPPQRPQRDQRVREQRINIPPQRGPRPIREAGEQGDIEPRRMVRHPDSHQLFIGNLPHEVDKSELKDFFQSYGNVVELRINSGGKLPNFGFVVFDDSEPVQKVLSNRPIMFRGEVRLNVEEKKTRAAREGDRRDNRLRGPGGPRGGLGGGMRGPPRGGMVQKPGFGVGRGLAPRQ
Technique: RNA Bind-n-Seq
Form: RNA
Matrix: in vitro
Tested at: 200 nM
Notes: whole 134-nt RNA, ends assumed
Together with: 150 mM LiCl
Baseline: input library
Reading: higher = stronger binding
Each molecule: 7-deaza-guanosine replaces G
All sequences stand within: GGGAGUUCUACAGUCCGACGAUC … UGGAAUUCUCGGGUGUCAAGG
Strand	log2 enrichment
UUGGCGCAUGCGCCUAAAGCUGACGGGUUUGAAAUGGCUUCGAUGUUAGCCGGGACCCGACUCAGGUGAAGGUCUGGUCCCCGUAGUUGG	-0.352
GCAGGAAGUAAAAACAAAUAAAAAUGCUUCGGAUAGUGGCAGGGGUGGGGGUUGCUAAGGAAAGGGUGGGAUGGGAGUGGGUAAAGAGUU	-0.135
UGUGCUACACAUCGUAUGUACCGAAUCGGGGCCCCCCCGGGGCCCCCCCGGGGCCCCCCCGGGAAAGUAUUAUGUUACGCCGUUCGGAUC	-0.289
UGGCCCUGGUGGCAUGCGGGGAGGAAGAGGUGGCCUCAUGGAUCGUGGUGGUCCCGGUGGAAUGAUCAGAGGUGGCCGUGGUGGAGACAG	0.128
CCUCAAGUCCUGUGCUACACAUCGUAUGUACCGAAUCGGAGGUGGUUUUUGGAAAGUAUUAUGUUACGCCGUUCGGAUCUGCACUUCCAG	-0.0396
CCUGUGCUACACAUCGUAUGUACCGAAUCGGCCCCCCCGGGGCCCCCCCGGGCCCCCCCGGAAAGUAUUAUGUUACGCCGUUCGGAUCUG	-0.521
UUCGUUUUUUUCCUUAGUCUGAAGUUGCAGCCGGAGUGAAGAAGAGCGGACCGCUGCCCAGUGCUGAGGUAGAGUGUCGGAUCUGUUUUC	-0.861
AAGUCCUGUGCUACACAUCGUAUGUACCGAAUCGGGGAGGGGUGGGGUUUUUGGGGAAAGUAUUAUGUUACGCCGUUCGGAUCUGCACUU	0.0815
UCAAGUCCUGUGCUACACAUCGUAUGUACCGAAUCGGGAGGGAAAGGGUUUGGGAAAGUAUUAUGUUACGCCGUUCGGAUCUGCACUUCC	-0.563
CCUGUGCUACACAUCGUAUGUACCGAAUCGGGGAAAAAAGGGAAAAAAGGAAAAAAGGGGAAAGUAUUAUGUUACGCCGUUCGGAUCUGC	0.557
CAAGUCCUGUGCUACACAUCGUAUGUACCGAAUCGGGAAAGGGGAAAGGAAAGGGAAAGUAUUAUGUUACGCCGUUCGGAUCUGCACUUC	-0.238

Series 3
Target: Centromere-binding protein 1, full length, His-tagged (CBF1, Saccharomyces cerevisiae, UniProt P17106, residues 1-351)
UniProt P17106, sequence (whole entry, looked up): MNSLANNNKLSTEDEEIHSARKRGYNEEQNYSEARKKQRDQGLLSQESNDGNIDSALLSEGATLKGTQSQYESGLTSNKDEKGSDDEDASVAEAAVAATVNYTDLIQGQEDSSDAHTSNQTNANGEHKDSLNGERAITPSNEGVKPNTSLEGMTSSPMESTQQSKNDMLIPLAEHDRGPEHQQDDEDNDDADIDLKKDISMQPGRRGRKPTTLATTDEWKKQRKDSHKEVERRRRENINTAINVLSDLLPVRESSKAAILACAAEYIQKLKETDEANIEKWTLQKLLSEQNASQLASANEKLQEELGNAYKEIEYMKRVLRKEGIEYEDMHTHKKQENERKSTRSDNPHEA
Technique: competition protein-binding microarray
Form: double-stranded DNA, one strand shown
Matrix: in vitro
Tested at: 2 µM
Notes: whole 60-bp probe, lowest competitor level
Together with: Pho4 competitor, 0.05 µM
Reading: higher = stronger binding
All sequences stand within: … GTCTTGATTCGCTTGACGCTGCTG
Strand	fluorescence intensity
CGGGGTTAAGTTTGTAGCGTGGGTGGCTTGCAGCAG	76.2 a.u.
AACCACTCGTCGAGTCACACGGAGAGTTGGCCATGA	72.4 a.u.
AGATCCTCTTGGGATCTTGTGCGACGGGGAGATTGA	53.8 a.u.
CGTCCTAGTGATTTTCACGTGCGCTCCATGAGGAAG	966 a.u.
GGCCCGGTGGGTCCACGCGTGTGTTGCGGTTAGAGC	55.5 a.u.
TGCCTTTCTGAAACGAATGTGACGGATACAGATACC	77.2 a.u.
AAAGCGGTAATTTGGGAAGTGGGTGCAGATATCTAT	75.2 a.u.
GTCTTGTCTCATTGGGAGGTGGGTGTCCCCACTTCA	76.2 a.u.
TTCCATTTGAACTGTCACATGACGAAACAGATGAAC	2100 a.u.
GTCTTGTCTCATTGTCACGACACTTTCCCCACTTCA	211 a.u.
CCGCTAAGCCCGAGAGCCGTGCGATCTATGTTTCTT	60.9 a.u.
AAGTTTCGGAATACACTCGTGCTTTCAACCTAAGAC	127 a.u.
TTATTCCCGTATCCACACGTGGCCGAAGAATATATA	863 a.u.
CTAACGAAGGTTTGATTTGTGGGTGACAAGCCAAGT	70.4 a.u.
CGGGGTTAAGTTTGTATGGTGGGTGGCTTGCAGCAG	52.1 a.u.
CGCTTTCCTATTGCGCGCATGACAAGGATGGAAAAA	119 a.u.
CTTCTGTAAATTTTTCACGTGCAGTGAAGCGCCCCG	783 a.u.
TATTCTAGTTAGCGTCACCTGATGCAGAATTGGCGG	1610 a.u.

Series 4
Target: RING finger protein unkempt homolog, zinc fingers 1-6, GST-SBP tag (UNK, Homo sapiens, UniProt Q9C0B0, residues 30-357)
UniProt Q9C0B0, sequence (30-357, looked up): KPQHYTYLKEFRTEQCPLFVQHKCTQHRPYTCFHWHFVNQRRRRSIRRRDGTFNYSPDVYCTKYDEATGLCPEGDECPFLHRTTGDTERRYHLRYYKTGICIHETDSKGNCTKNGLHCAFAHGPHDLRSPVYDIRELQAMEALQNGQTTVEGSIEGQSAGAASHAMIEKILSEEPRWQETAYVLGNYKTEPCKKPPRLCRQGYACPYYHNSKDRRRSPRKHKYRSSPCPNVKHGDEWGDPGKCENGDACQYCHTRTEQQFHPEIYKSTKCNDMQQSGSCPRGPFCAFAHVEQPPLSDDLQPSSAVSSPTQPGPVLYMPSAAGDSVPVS
Technique: RNA Bind-n-Seq
Form: RNA
Matrix: in vitro
Tested at: not given
Notes: RNA with constant flanks, human and mouse sites, ends assumed
Baseline: input RNA pool
Reading: higher = stronger binding
All sequences stand within: GGGAGUUCUACAGUCCGACGAUC … CAACAGAGGAUUGAGCAUCA
Strand	bound/input enrichment [ratio]
GGCAUGCCGCUUGCUUGAGCCAAUGCUAUGCUUGCUAGACUGUGUCUGACUGACUUUGGGCCAUCAAAUGUAUGCACAGCCAUGGCUUGGAAGUGUCCGUAGAUGGGAAUGCAAUAAAGG	0.214
GAUCCUGGUCUUGUAUUCAUUGUGGUAGAGUGUCCUGAUGAAGGAUUCAUCCUGCCCAUCUGUGAGAACGACACCUUUAAAAGGUACCAGGCAGAGGCUGAUGCACCUGUGGCGCUGGUG	0.194
ACUUGUUCACUGGAUUGUCUGGGAUGACUUGGGCUCAUAUCCACAAUACUUGGUAUAAGGUAGUAGAUUGUUGGGGGUGGGGAGGGAGGGAUCUAGGAUACAGGGCAGGGAUAAAUACAG	25.3
UCUAGAAUGUCUUCAACUAAAUCAAGUGGAAGUGAAUCAGACAGAUCAGAAAGGCCUGCAUUAGUACGCCAGUCUACUUUCAUCAAAGAAGCCCCAAGCCCAACCCUGAGGAGGAAACUG	0.124
CAGAAUGUCAACAGUGUAACUUUAUUUGUUCAGUCUAAUCAAGGAGAAGAAGAAACAACGAGAAUUUCAUAUUUUACUUUCAUUGGUACUCCAGUCCAGGCAACAAAUAUGAAUGACUUC	0.125
GGCUUUGCUUUACUUUUUUACCUUGAACAACUGCUUGGAGGACCAGAGAUUUUCCUAGGAUUCUUAAAAGCUUAUGUUGAGAAGUUUUCCUAUAAGAGCAUAACUACUGAUGACUGGAAG	0.235
AAGACCAUAAAGUUAUGGAAUACUCUGGGUGUCUGCAAGUACACGGUCCAGGAUGAGAGUCAUUCAGAAUGGGUGUCUUGUGUCCGCUUCUCCCCGAACAGCAGCAACCCUAUCAUCGUC	0.133
ACUAAGACUGAAUAUGAACCUGAUCGCAAAAAAGGAAAAGCACGUCCUCCCAAGAUAGCCGAGUUCACCGUCAGCAUCACCGAGGGUGUCACCGAGAGGUUUAAGGUCUCCGUGCUGGUC	0.105
GCUGAAGGAUAUGUUAUCGGCAGCUGUAUUAAACACAUUCCAAUCGCAGGAAGAGAUAUAACAUAUUUUAUUCAGCAACUGCUGCGAGACCGAGAAGUAGGAAUCCCUCCUGAGCAGUCC	0.123
GACGACCUGUUCCGCUUCAACAACAUUAACUUGGAUCCACUUACAGAAACUUAUGGGAUUCCUUUCUACCUACAAUACCUCGCCCACUGGCCAGAGUAUUUCAUUGUUGCAGAGGCACCU	0.237
GUUUGAGCCUAGCAAUUGCAGAACUCAUAAAAUUGCUUGUGAAAUUACACACCAUAUUACUAGCAUAUACAUUGCAGUGCUCCAAUCAUGCUAACAGAUAAUAGAUUUUUCUUUAAGAAU	0.646
